Experimental data gathered from unrelated publications.
A part holds a random share of what one study measured. Positions count from the first letter of the parent shown.

Series 1 — technique: universal PBM; form: double-stranded DNA, one strand shown; matrix: in vitro; concentration: not given; reading: higher = stronger binding
Target: Sal-like protein 4, full length isoform B (SALL4, Homo sapiens, UniProt Q9UJQ4-2, residues 1-616)
Notes: 8-mer, flanks averaged, mean of replicates
Residues (chain): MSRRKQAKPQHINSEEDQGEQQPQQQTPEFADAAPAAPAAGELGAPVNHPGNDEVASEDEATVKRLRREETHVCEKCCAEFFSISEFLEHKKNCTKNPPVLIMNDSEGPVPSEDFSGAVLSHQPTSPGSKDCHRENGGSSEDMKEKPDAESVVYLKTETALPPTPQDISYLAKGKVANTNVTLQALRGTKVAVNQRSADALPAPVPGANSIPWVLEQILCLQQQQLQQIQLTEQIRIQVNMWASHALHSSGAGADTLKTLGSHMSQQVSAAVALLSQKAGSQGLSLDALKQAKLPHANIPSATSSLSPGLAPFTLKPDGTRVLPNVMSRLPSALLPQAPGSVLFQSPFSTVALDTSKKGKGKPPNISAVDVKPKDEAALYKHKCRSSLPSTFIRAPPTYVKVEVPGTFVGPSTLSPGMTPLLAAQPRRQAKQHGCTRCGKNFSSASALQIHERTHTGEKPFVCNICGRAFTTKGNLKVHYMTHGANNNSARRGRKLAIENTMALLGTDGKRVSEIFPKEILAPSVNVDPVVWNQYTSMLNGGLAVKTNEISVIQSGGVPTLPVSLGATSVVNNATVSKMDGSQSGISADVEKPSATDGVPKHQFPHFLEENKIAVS
Sequence	E-score
AACCGTGC	-0.0605
AAAGTGGA	0.0622
GGCAATGA	-0.0725
CGGCAAAG	-0.232
CAGACGGC	-0.409
TTGATAAA	0.293
ATCTCATG	0.0657
ATATTCGC	0.299
CTCACGAC	-0.209
AGATGCGA	0.0512
CTAGAAGA	0.0374

Series 2 — target: CCNE1, cyclin fold, Cln2 fusion (human); technique: yeast growth competition, sequencing; matrix: yeast; notes: strong parent motif; baseline: not given; reading: higher = stronger binding
Starting sequence: RBL1 docking peptide (human); GSAKRRLFGEDPP
Substitution	normalised enrichment score
E10Q	3.72
R5E	-0.0192
P12L	6.34
D11I	4.5
A3C	6.1
G9I	6.74
F8M	0.35
R5V	0.42
K4C	5.09

Series 3 — technique: competition protein-binding microarray; form: double-stranded DNA, one strand shown; matrix: in vitro; concentration: 2 µM; together with: Pho4 competitor, 0.05 µM; reading: higher = stronger binding; constant ends, left off below: … GTCTTGATTCGCTTGACGCTGCTG
Target: Centromere-binding protein 1, full length, His-tagged (CBF1, Saccharomyces cerevisiae, UniProt P17106, residues 1-351)
UniProt P17106, sequence (whole entry, looked up): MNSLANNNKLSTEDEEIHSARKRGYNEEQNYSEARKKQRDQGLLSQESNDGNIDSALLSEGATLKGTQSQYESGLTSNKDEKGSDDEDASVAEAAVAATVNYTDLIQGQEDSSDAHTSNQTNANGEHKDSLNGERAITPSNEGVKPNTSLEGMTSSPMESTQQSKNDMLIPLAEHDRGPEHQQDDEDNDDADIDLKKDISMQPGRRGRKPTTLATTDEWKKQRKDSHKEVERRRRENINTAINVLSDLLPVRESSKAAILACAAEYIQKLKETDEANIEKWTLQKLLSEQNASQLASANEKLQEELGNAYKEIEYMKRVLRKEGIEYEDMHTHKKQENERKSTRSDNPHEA
Notes: whole 60-bp probe, lowest competitor level
Sequence	fluorescence intensity
AAAGCGGTAATTTTTCACGTGCTCTCACATATCTAT	1880 a.u.
CACCCGGAGTACCAAAACGTGACAAAGCAGTTTCCT	505 a.u.
GTCTTGTCTCATTGCTGCGTGGGTGTCCCCACTTCA	68.3 a.u.
TGCTTACTTGATTGTCATGTGCCTTCGTAGGCAAAG	438 a.u.
AAAGCGGTAATTTGCCTCGTGGGTGCAGATATCTAT	97.5 a.u.
CGGGGTTAAGTTTTTCACGTGACTTGCTTGCAGCAG	7030 a.u.
TGCTGGCCAAACTGTGTCGTGGGACGCTGCTGTTGG	62.6 a.u.

Further values, each from its own experiment
Substance	target	assay	system	conditions	how to read	quantity	result
PhoQ, residues 284 288 289 292 302 303 GASLAW	PhoP, residues 12 14 15 18 19 HLGGL (Escherichia coli, UniProt P23836)	Sort-seq, refers to: YFP reporter	E. coli	PhoQ-PhoP variant library, together with: 10 µM Mg2+	baseline: high Mg2+ state, higher = stronger signaling	fold induction	0.85

Excerpt of the above (series 2):
Substitution	normalised enrichment score
D11I	4.5
A3C	6.1
